Assay results collected from several papers.
Each line is one published result; not all experiments were run side by side. Several values in a cell are separate wells, animals, samples, runs or records. ± marks the error that the study gave.
Target: Cholinesterase (BCHE, Equus caballus, UniProt P81908)

SMILES | test | setting | IC50
O=C(COc1ccc(Sc2ccc(OCC(=O)N/N=C/c3ccc(O)cc3)cc2)cc1)N/N=C/c1ccc(O)cc1 | enzyme activity, inhibitor, Ellman | – | 142 µM
O=C(/C=C/c1ccc(Cl)cc1)c1cc2ccccc2oc1=O | enzyme activity, inhibitor | – | > 40 µM
O=C(COc1ccc(Sc2ccc(OCC(=O)N/N=C/c3ccc(Cl)cc3Cl)cc2)cc1)N/N=C/c1ccc(Cl)cc1Cl | enzyme activity, inhibitor, Ellman | – | 75.1 µM
COc1ccc2c(c1)CC1c3c(cc4c(c3-2)OCO4)CCN1C (single isomer, unassigned; (-)) | enzyme activity, inhibitor, Ellman | – | 16.6 ± 0.54 µM
CCc1nc([N+](=O)[O-])c(N2CCN(C(=NNc3ccc4c(C)cc(=O)oc4c3)C(C)=O)CC2)n1Cc1ccccc1 | enzyme activity, inhibitor, Ellman | – | 0.002 µM
CCCCCCCC(=O)Oc1ccc2c(OC(=O)CCCCCCC)c3ccccc3cc2c1OC(=O)CCCCCCC | enzyme activity, inhibitor, Ellman | pH 8 | > 250 µM
CC(=O)C(=NNc1ccc2c(C)cc(=O)oc2c1)N1CCN(CCO)CC1 | enzyme activity, inhibitor, Ellman | pH 8 | 233 µM
COC(=O)C1=CO[C@@H](OC(C)=O)[C@@H]2C(Cn3cc(CN4C(=O)c5ccccc5C4=O)nn3)=CC[C@H]12 | – | horse serum enzyme | 274 µM
COCCN1COc2c(cc3c4c(c(=O)oc3c2C)CCC4)C1 | enzyme activity, inhibitor, Ellman | – | 147 µM
O=C(/C=C/c1ccccc1F)c1cc2ccccc2oc1=O | enzyme activity, inhibitor | – | > 40 µM
CC(=O)C1=NN(c2ccc3c(C)cc(=O)oc3c2)C(=O)C2CCCN12 (centres unmarked) | enzyme activity, inhibitor, Ellman | pH 8 | 46.7 µM
COC(=O)C1=CO[C@@H](OC(C)=O)[C@@H]2C(Cn3cc(CCCN4C(=O)c5ccccc5C4=O)nn3)=CC[C@H]12 | – | horse serum enzyme | 418 µM and 419 µM
COc1ccc2c(c1)C(=O)c1nccc3cc4c(c-2c13)OCO4 | enzyme activity, inhibitor, Ellman | – | 13.6 ± 0.3 µM
Cc1cc(O)c2c(c1)C(=O)c1c(O)ccc(O)c1C2=O | enzyme activity, inhibitor, Ellman | – | 2.99 µM
O=C(COc1ccc(Sc2ccc(OCC(=O)N/N=C/c3ccc(Cl)cc3)cc2)cc1)N/N=C/c1ccc(Cl)cc1 | enzyme activity, inhibitor, Ellman | – | 14.7 µM
O=C(/C=C/c1cccc(Cl)c1)c1cc2ccccc2oc1=O | enzyme activity, inhibitor | – | 11.8 µM
CC(=O)C(=NNc1ccc2c(C)cc(=O)oc2c1)N1CCCCC1 | enzyme activity, inhibitor, Ellman | pH 8 | 1.2 µM
Cc1nc2ccc(NCc3cn(CCCOC4=CC(=O)c5ccccc5C4=O)nn3)cc2nc1C | enzyme activity, inhibitor, Ellman | – | > 100 µM
COc1cc(/C=C/C(=O)OC[C@H]2O[C@@H](Oc3c(-c4ccc(O)cc4)oc4cc(O)cc(O)c4c3=O)[C@H](O)[C@@H](OC(=O)/C=C/c3ccc(O)cc3)[C@@H]2O)ccc1O | enzyme activity, inhibitor, Ellman | – | 113 µM

SMILES | test | setting | IC50
COc1cc2c(cc1OC(C)=O)CCN1Cc3c(ccc(OC(C)=O)c3OC)C[C@@H]21 | enzyme activity, inhibitor, Ellman | – | 63.1 ± 0.83 µM
C=CCN1CCC(N2CCCC2=O)c2cc(CC)ccc21 (centres unmarked) | enzyme activity, inhibitor, Ellman | – | < 32 µM
O=C(NCCCCCn1ccc2ccc(F)cc21)Oc1ccccc1F | enzyme activity, inhibitor, HPLC | – | 0.74 µM
CC(=O)c1c(O)ccc2ccc(=O)oc12 | enzyme activity, inhibitor, Ellman | – | 155 µM
CCN(CCCCOc1ccc(CCC(=O)N2CCC(Cc3ccccc3)CC2)cc1OC)Cc1ccccc1 | enzyme activity, inhibitor, Ellman | – | 0.049 µM
COC(=O)C1=CO[C@@H](O)[C@@H]2C(Cn3cc(C(O)(c4ccccc4)c4ccccc4)nn3)=CC[C@H]12 | – | horse serum enzyme | 54.3 ± 0.34 µM
C=CCN1CCC(N2CCCC2=O)c2cc(Br)ccc21 (centres unmarked) | enzyme activity, inhibitor, Ellman | – | < 32 µM
O=C(/C=C/c1ccccc1)c1cc2ccccc2oc1=O | enzyme activity, inhibitor | – | > 40 µM
CC(=O)C(=NNc1ccc2c(C)cc(=O)oc2c1)N1CCSCC1 | enzyme activity, inhibitor, Ellman | pH 8 | 7.6 µM
CCOc1cc(/C=N/NC(=O)COc2ccc(Sc3ccc(OCC(=O)N/N=C/c4ccc(O)c(OCC)c4)cc3)cc2)ccc1O | enzyme activity, inhibitor, Ellman | – | 239 µM
COc1ccc([C@@H]2N=NC(NCCc3c[nH]c4ccc(C)cc34)=NC2=O)cc1 | enzyme activity, inhibitor, Ellman | – | 128 µM
CC(=O)C1=C(C)NC(SCCCSc2nnc(Cc3ccccc3Nc3c(Cl)cccc3Cl)n2-c2ccc(Cl)c(Cl)c2)=NC1c1ccc([N+](=O)[O-])cc1 (centres unmarked) | enzyme activity, inhibitor, Ellman | – | 31.9 µM
O=C(O)Cc1cccc(OC(=O)NCCCCCn2ccc3ccc(F)cc32)c1 | enzyme activity, inhibitor, HPLC | – | > 10 µM
CCCN1CCN(C(=NNc2ccc3c(C)cc(=O)oc3c2)C(C)=O)CC1 | enzyme activity, inhibitor, Ellman | pH 8 | 222 µM
CCCC(=O)Oc1ccc2c(OC(=O)CCC)c3ccccc3cc2c1O | enzyme activity, inhibitor, Ellman | pH 8 | 17.2 µM
COc1cc(/C=C/C(=O)NC(C)C(N)=O)ccc1OCc1ccccc1 (centres unmarked) | – | – | 52 ± 1.42 µM
COc1ccc(/C=N/NC(=O)COc2ccc(Sc3ccc(OCC(=O)N/N=C/c4ccc(OC)cc4OC)cc3)cc2)c(OC)c1 | enzyme activity, inhibitor, Ellman | – | 55.4 µM
COc1cc2c(cc1OC)-c1c(C)c3cc(OC)c(OC)cc3c[n+]1CC2 | enzyme activity, inhibitor, Ellman | – | 32.8 ± 0.34 µM
COC(=O)C1=CO[C@@H](O)[C@@H]2C(Cn3cc(-c4ccc(F)cc4)nn3)=CC[C@H]12 | – | horse serum enzyme | 281 ± 2.7 µM

SMILES | test | setting | IC50
O=C1C=C(OCCCCCCn2cc(CNc3ccc4nccnc4c3)nn2)C(=O)c2ccccc21 | enzyme activity, inhibitor, Ellman | – | 1.4 µM
COc1ccc2c(c1OC)C(O)C1c3c(cc4c(c3-2)OCO4)CCN1C (centres unmarked) | enzyme activity, inhibitor, Ellman | – | 22.47 ± 0.1 µM
CC(C)c1ccc(/C=N/NC(=O)COc2ccc(Sc3ccc(OCC(=O)N/N=C/c4ccc(C(C)C)cc4)cc3)cc2)cc1 | enzyme activity, inhibitor, Ellman | – | 120 µM
COc1cc(O)cc(-c2cc3ccc(O)c(C/C=C(\C)CCC=C(C)C)c3o2)c1CC=C(C)C | enzyme activity, inhibitor | – | 19.1 µM
COc1ccccc1/C=N/NC(=O)COc1ccc(Sc2ccc(OCC(=O)N/N=C/c3ccccc3OC)cc2)cc1 | enzyme activity, inhibitor, Ellman | – | 110 µM
O=C1C=C(OCCCCn2cc(CNc3ccc4nccnc4c3)nn2)C(=O)c2ccccc21 | enzyme activity, inhibitor, Ellman | – | 35.5 µM
O=C(COc1ccc(Sc2ccc(OCC(=O)N/N=C/c3ccc(O)cc3O)cc2)cc1)N/N=C/c1ccc(O)cc1O | enzyme activity, inhibitor, Ellman | – | 84.6 µM
Cc1nc2ccc(NCc3cn(CCCCOC4=CC(=O)c5ccccc5C4=O)nn3)cc2nc1C | enzyme activity, inhibitor, Ellman | – | > 100 µM
O=C(/C=C/c1ccc(F)cc1)c1cc2ccccc2oc1=O | enzyme activity, inhibitor | – | > 40 µM
CCCCCC(=O)Oc1ccc2c(OC(=O)CCCCC)c3ccccc3cc2c1O | enzyme activity, inhibitor, Ellman | pH 8 | 5.3 µM and 5.34 µM
CCCCCn1c(SC(C(=O)NCc2ccccc2)C(=O)NCc2ccccc2)nc2cc(C(=O)Nc3cccc(C(F)(F)F)c3)ccc2c1=O | inhibitor | – | 21.7 µM
CN1CCc2cc3c(c4c2C1C(O)c1ccccc1-4)OCO3 (single isomer, unassigned; (-)) | enzyme activity, inhibitor, Ellman | – | 7.42 ± 0.16 µM
O=C1c2ccccc2NC(c2cc(Br)ccc2O)N1/N=C/c1cc(Br)ccc1O (centres unmarked) | enzyme activity, inhibitor, Ellman | – | 5.7 µM
C/C(=C\CO)CCCC(C)CCCC(C)CCCC(C)C (centres unmarked) | enzyme activity, inhibitor | – | 80.6 µM
O=C(Cc1ccccc1Nc1c(Cl)cccc1Cl)NNC(=S)Nc1ccc(Cl)c(Cl)c1 | enzyme activity, inhibitor, Ellman | – | 29.5 µM
COc1cc(CCC(=O)N2CCC(Cc3ccccc3)CC2)ccc1OCCCCN1CCCCC1 | enzyme activity, inhibitor, Ellman | – | 0.89 µM
O=C1c2ccccc2NC(c2cc([N+](=O)[O-])ccc2O)N1/N=C/c1cc([N+](=O)[O-])ccc1O (centres unmarked) | enzyme activity, inhibitor, Ellman | – | 17.8 µM
CC(=O)C1=C(C)NC(SCCCSc2nnc(Cc3ccccc3Nc3c(Cl)cccc3Cl)n2-c2ccc(Cl)c(Cl)c2)=NC1c1ccc(C)cc1 (centres unmarked) | enzyme activity, inhibitor, Ellman | – | 36 µM

A few entries again:
SMILES | test | setting | IC50
CC(=O)C1=C(C)NC(SCCCSc2nnc(Cc3ccccc3Nc3c(Cl)cccc3Cl)n2-c2ccc(Cl)c(Cl)c2)=NC1c1ccc([N+](=O)[O-])cc1 (centres unmarked) | enzyme activity, inhibitor, Ellman | – | 31.9 µM
CCOc1cc(/C=N/NC(=O)COc2ccc(Sc3ccc(OCC(=O)N/N=C/c4ccc(O)c(OCC)c4)cc3)cc2)ccc1O | enzyme activity, inhibitor, Ellman | – | 239 µM
COc1cc2c(cc1OC)-c1c(C)c3cc(OC)c(OC)cc3c[n+]1CC2 | enzyme activity, inhibitor, Ellman | – | 32.8 ± 0.34 µM
CCCCCCCC(=O)Oc1ccc2c(OC(=O)CCCCCCC)c3ccccc3cc2c1OC(=O)CCCCCCC | enzyme activity, inhibitor, Ellman | pH 8 | > 250 µM
Cc1nc2ccc(NCc3cn(CCCCOC4=CC(=O)c5ccccc5C4=O)nn3)cc2nc1C | enzyme activity, inhibitor, Ellman | – | > 100 µM
